Assay results of several laboratories.

Structure (SMILES)	test	test system	conditions	measurement	result
CC(C)[C@H](N)C(=O)NCCCS(=O)(=O)O	–	human both sexes, plasma	oral, 256.5 mg once daily, day 1, fed capsule	Cmax	6370 ng/mL
CN1C(=O)[C@@H](NC(=O)c2nnc(Cc3ccccc3)[nH]2)COc2cccnc21	–	healthy human, fasted, plasma	oral, 10 mg single dose, geometric mean	Cmax	249 ng/mL
C=CC(=O)N(C)CCOc1c(N)ncnc1-c1cc(F)cc(NC(=O)c2ccc(C3CC3)cc2F)c1C	–	human	oral, 20 mg, day 7, median, added: ritonavir	Cmax per dose	7.73 ng/mL/mg
Cl.[2H]C([2H])([2H])CC(=O)c1cnc(NC(=O)C2CC2)cc1Nc1cccc(-c2ncn(C([2H])([2H])[2H])n2)c1OC	geometric mean	human	oral, 40 mg twice daily, day 1, fasted, tablet, multiple dose	Cmax	250 ng/mL
O=C(O)CCC(=O)O.[2H]C([2H])([2H])Oc1cc(C)c2[nH]ccc2c1CN1CC[C@@H](C2CC2)C[C@H]1c1ccc(C(=O)O)cc1	–	human, plasma	200 mg once daily, day 10, multiple ascending dose, geometric mean	Cmax	4260 ng/mL
COc1cc(N2CCC(N3CCN(C)CC3)CC2)ccc1Nc1ncnc(Nc2ccccc2S(=O)(=O)C(C)C)n1	–	human, dose expansion arm, plasma	oral, 200 mg, day 1, mean	Cmax	1130 ng/mL
CCOc1c([C@H](C)n2nc(C)c3c(N)ncnc32)cc(Cl)c(F)c1[C@@H]1CNC(=O)C1	–	human patients, plasma	oral, 20 mg, day 1, geometric mean	Cmax	1510 nM
CCn1cc(C(=O)N2CCOCC2)c(=O)c2cc(NC3Cc4ccccc4C3)cnc21	–	human, fed	oral suspension, 600 mg/day twice daily, day 8, arithmetic mean	Cmax	2420 ng/mL
CCN1CCN(Cc2ccc(Nc3ncc(F)c(-c4cc(F)c5nc6n(c5c4)[C@H](C)CCC6)n3)nc2)CC1	–	human, plasma	500 mg single dose, mean	Cmax	248 ng/mL
COc1ncc(-c2nc3c(n2C(C)C)[C@H](c2ccc(Cl)cc2)N(c2cc(Cl)cn(C)c2=O)C3=O)c(OC)n1	LC-MS/MS	human, plasma	oral, 15 mg, cycle 1 day 8, low-dose arm	Cmax	128 ng/mL
C[C@@H]1CCO[C@H]2Cn3cc(C(=O)NCc4ccc(F)cc4F)c(=O)c(O)c3C(=O)N12	–	human, body weight 20 to <25 kg, plasma	oral, 22.4 mg, granules, steady state	Cmax	4880 ng/mL
O=C(COc1ccc(Cl)cc1)NC12CC(c3nnc([C@H]4C[C@@H](OC(F)(F)F)C4)o3)(C1)C2	–	healthy human both sexes, plasma	oral, 45 mg once daily, day 1, mean	Cmax	631 nM
C[C@@H](Nc1cc(F)cc(F)c1)c1cc(C(=O)N(C)C)cc2c(=O)cc(N3CCOCC3)oc12	–	human, dose-expansion cohort, plasma	oral, 120 mg twice daily, geometric least-squares mean, added: abiraterone 1000 mg	Cmax	982 ng/mL
CNC(=O)c1ccc(-c2cnc3ncc(Cc4ccc5ncccc5c4)n3n2)cc1F	–	human, mild NCI classification, plasma	oral, 200 mg, adjusted geometric mean	Cmax	1800 ng/mL

A few entries again:
Structure (SMILES)	test	test system	conditions	measurement	result
CC(C)[C@H](N)C(=O)NCCCS(=O)(=O)O	–	human both sexes, plasma	oral, 256.5 mg once daily, day 1, fed capsule	Cmax	6370 ng/mL
CCN1CCN(Cc2ccc(Nc3ncc(F)c(-c4cc(F)c5nc6n(c5c4)[C@H](C)CCC6)n3)nc2)CC1	–	human, plasma	500 mg single dose, mean	Cmax	248 ng/mL
